Measured values from different studies.
Compare with care: the assays were run in different laboratories. ± gives the spread as reported.

C[C@@H]1O[C@@H](Oc2c(-c3ccc(O)c(O)c3)oc3cc(O)cc(O)c3c2=O)[C@H](O)[C@H](O)[C@H]1O — Papp A→B (mass spectrometry; Caco-2; 40 µM, 6 h): 5.6 ×10⁻⁶ cm/s
CN1CCN(c2ccc(Nc3ncc4cc(C#N)c(=O)n(C5CCCC5)c4n3)cc2)CC1 — Vss (NIH Swiss nude mice, intracerebral U87 tumour, plasma; intravenous, 25 mg/kg, together with: gefitinib 200 mg/kg oral 1 h before): 7.08 L/kg
O=C(O)C[C@H](O)C[C@H](O)/C=C/c1c(C2CC2)nc2ccccc2c1-c1ccc(F)cc1 — AUC(0-27 h) (male Sprague Dawley rat, NASH, plasma; oral, 2.5 mg/kg, geometric mean, together with: silymarin 500 mg/kg oral): 15.9 µM·h
COC(=O)c1ccc2c(c1)NC(=O)/C2=C(\Nc1ccc(N(C)C(=O)CN2CCN(C)CC2)cc1)c1ccccc1 — Cmax steady state (human mild liver impairment, plasma; oral, 150 mg twice daily, geometric mean): 75.8 ng/mL
Cn1c(-c2ccc(C(N)=O)cc2F)nnc1C(C)(C)Oc1c(F)cc(Cl)cc1F — half-life range over subjects (young Japanese adults, plasma; oral, 20 mg single dose, day 1, high-dose multiple-dose study): 12 to 25.5 h
C/C=C/C=C/C=C/CC/C=C/C(=O)NCC(C)(C)O — recovery (rat, small intestine site 4 contents; oral, dose not given, 2 h, no β-glucuronidase treatment; relative to: ingested amount): 0.01%
Cc1cc(C)c2c(c1)[C@@H](N(Cc1cc(C(F)(F)F)cc(C(F)(F)F)c1)c1nnn(C)n1)CCCN2C[C@H]1CC[C@H](C(=O)O)CC1 — patients below quantitation limit (dyslipidemic patients, plasma; oral, 4 to 6 weeks after last dose; relative to: patients): 92%
Cc1nc2cccc(OCC(C)(C)C(=O)NC(C)C)c2c(N)c1C(=O)O — AUC(0-last) (Sprague-Dawley rat, male, plasma; oral gavage, 100 mg/kg, day 7): 185 ± 15.3 ng·h/mL
COc1ccc2nc([S@@+]([O-])Cc3ncc(C)c(OC)c3C)[nH]c2c1 — adverse events (human healthy; 40 mg, folliculitis): 0%
CC(=O)[C@H]1CC[C@H]2[C@@H]3CCC4=CC(=O)CC[C@]4(C)[C@H]3CC[C@]12C — thermodynamic solubility (shake-flask; PEG400; 37 °C): 17.1 ± 0.71 mg/g
C=CC(N)CCC(=O)O (stereo not drawn) — Tmax (median) (male Sprague-Dawley rat, plasma; oral, 1.0 mg/kg, formulation 5, together with: Sar 200 mg/kg): 0.67 h
CC(C)NCC(O)c1ccc(NS(C)(=O)=O)cc1 (racemic) — QTc change (male Hartley guinea pig, anaesthetized; intravenous infusion, 10 mg/kg, 10 min infusion; relative to: baseline): 18.9 ± 6.6%
C#C[C@]1(O)CC[C@H]2[C@@H]3CCc4cc(O)ccc4[C@H]3CC[C@@]21C — thermodynamic solubility (shake-flask; soybean oil; 37 °C): 13.4 ± 0.47 mg/g
CC(=O)O[C@@]12CO[C@@H]1C[C@H](O)[C@@]1(C)C(=O)[C@H](O)C3=C(C)[C@@H](OC(=O)[C@H](O)[C@@H](NC(=O)OC(C)(C)C)c4ccccc4)C[C@@](O)([C@@H](OC(=O)c4ccccc4)[C@H]21)C3(C)C — clearance (male Sprague-Dawley rat, plasma; intravenous, 10 mg/kg): 71.7 mL/min/kg
O=C1N=C(N2CCOCC2)CN1c1ccc(Cl)cc1 — apparent oral clearance (beagle dog, both sexes, plasma; oral, 30 mg/kg twice daily, day 5, tablets, after 4 days dosing): 7.8 mL/min/kg
CC1(C)CC[N+](C)(CC(=O)OC2CCCCCCCCCCC2)CC1 — microsomal CLint (metabolic stability; male CD-1 mouse, liver microsomes; 1 µM, pH 7.4): 456 µL/min/mg
CCOC(=O)C1=C(C)NC(C)=C(C(=O)OC)C1c1cccc(Cl)c1Cl (stereo not drawn) — thermodynamic solubility (shake-flask; PEG400; 37 °C): 43.9 ± 6.25 mg/g
CS(=O)(=O)OC[C@H](O)[C@@H]1CO1 — concentration (Wistar rat, female, plasma; intraperitoneal, 500 mg/kg of treosulfan, 4 h): 5.2 µM

Some of these lines once more:
O=C1N=C(N2CCOCC2)CN1c1ccc(Cl)cc1 — apparent oral clearance (beagle dog, both sexes, plasma; oral, 30 mg/kg twice daily, day 5, tablets, after 4 days dosing): 7.8 mL/min/kg
CC1(C)CC[N+](C)(CC(=O)OC2CCCCCCCCCCC2)CC1 — microsomal CLint (metabolic stability; male CD-1 mouse, liver microsomes; 1 µM, pH 7.4): 456 µL/min/mg
